Earlier results as cited in several papers.
Lines come from different studies, so protocols differ. ± marks the error that the study gave. ≈ marks a conversion by molar mass, not a printed value.
Chain of UniProt Q9C098 (whole entry, looked up): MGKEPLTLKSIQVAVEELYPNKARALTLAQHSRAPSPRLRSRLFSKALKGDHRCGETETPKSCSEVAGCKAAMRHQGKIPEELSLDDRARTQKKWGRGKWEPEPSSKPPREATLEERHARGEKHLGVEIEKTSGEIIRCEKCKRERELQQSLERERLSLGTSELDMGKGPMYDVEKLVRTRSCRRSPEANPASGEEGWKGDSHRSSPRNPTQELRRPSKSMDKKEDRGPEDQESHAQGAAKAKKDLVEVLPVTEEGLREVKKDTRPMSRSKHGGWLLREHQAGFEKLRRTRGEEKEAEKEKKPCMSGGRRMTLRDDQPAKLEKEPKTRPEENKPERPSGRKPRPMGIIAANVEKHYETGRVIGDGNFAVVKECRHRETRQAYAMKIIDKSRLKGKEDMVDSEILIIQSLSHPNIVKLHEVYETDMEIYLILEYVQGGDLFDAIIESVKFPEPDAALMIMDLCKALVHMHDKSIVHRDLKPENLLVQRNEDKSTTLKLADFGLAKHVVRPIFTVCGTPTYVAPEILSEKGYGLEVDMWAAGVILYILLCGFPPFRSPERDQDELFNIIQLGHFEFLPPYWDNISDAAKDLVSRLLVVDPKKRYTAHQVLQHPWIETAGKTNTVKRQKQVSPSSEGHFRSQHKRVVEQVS

`O=C(/C=C/c1cccc(S(=O)(=O)Nc2ccccc2)c1)NO` gave an IC50 of 2370 ± 1610 nM (neonatal foreskin fibroblasts; cell growth).
For `N=C(N)c1ccc(Nc2ccc(-c3cc4ccc(C(=N)N)cc4[nH]3)cc2)cc1`, the IC50 was 2270 nM (HeLa; cell proliferation).
`C[C@@H](c1ccc2nccn2c1)n1nnc2ncc(-c3cnn(C)c3)nc21` gave an IC50 of 6840 nM (A 172).
The IC50 of `CC(=O)OC[C@H]1O[C@H]2OC(C)CCCCCC/C=C\CCCCCCCC(=O)O[C@H]3[C@H](O)[C@@H](O)[C@H](O[C@@H]2[C@@H](O)[C@@H]1O)O[C@@H]3COC(C)=O` (stereo partly drawn) is reported as 15 to 20 µg/mL (MDA-MB-231 cells; cell growth; monolayer culture).
`Nc1cc(C(F)(F)F)c(-c2cc(N3CCOCC3)nc(N3CCOCC3)n2)cn1` has an IC50 of 3250 nM (T98G).
`CCc1c2c(nc3ccc(OC(=O)N4CCC(N5CCCCC5)CC4)cc13)-c1cc3c(c(=O)n1C2)COC(=O)[C@]3(O)CC` has an IC50 of 5170 nM (HT-29).
For `COc1cc2c3c(n(CCCN4CCOCC4)c(=O)c2cc1OC)-c1cc2c(cc1C3=O)OCO2`, the IC50 was 560 nM (MCF7; 72 h).
With `Cc1c(C#N)cccc1[C@@H](C)Nc1nnc(C)c2cnc(N3CCOCC3)cc12` the IC50 was 46.8 ± 15.4 nM (HCC1438; In-Cell Western, item: pERK).
With `CN(CCOc1ccc(CC2SC(=O)NC2=O)cc1)c1ccccn1` (stereo not drawn) the IC50 was 4 nM (3T3-L1 adipocytes).
The IC50 of `C=CC(=O)Nc1cc(Nc2nccc(-c3cn(C)c4ccccc34)n2)c(OC)cc1N(C)CCN(C)C` is reported as 4140 nM (A 172).
For `CC(F)(F)c1cc(F)ccc1-c1sc2cc(O)ccc2c1Oc1ccc(/C=C/C(=O)O)cc1`, the IC50 was 6 nM (MCF7; cell proliferation; added: insulin).
With `O=C(O)c1[nH]c2ccccc2c1C1NCCc2ccccc21` (stereo not drawn) the IC50 was greater than 100000 nM (MRC-5 fibroblasts; cytotoxicity).
`CNC(C)C1CCC(N)C(OC2C(N)CC(N)C(OC3OCC(C)(O)C(NC)C3O)C2O)O1` (stereo not drawn) has an MIC of 1 µg/mL (≈ 2.09 µM) (Enterobacter cloacae; clinical isolate RKI-No_113/16).
The IC50 of `Nc1nc(Cl)nc2c1ncn2[C@H]1C[C@H](O)[C@@H](CO)O1` is reported as roughly 750 nM (RPMI-8226).
`Nc1cc(C(F)(F)F)c(-c2nc(N3CCOCC3)nc(N3CCOCC3)n2)cn1` gave a remaining activity of 85% (Serine/threonine-protein kinase DCLK3 (DCLK3, Homo sapiens, UniProt Q9C098); enzyme activity; 10 µM; relative to: untreated).
For `CO[C@H]1C[C@@H]2CC[C@@H](C)[C@@](O)(O2)C(=O)C(=O)N2CCCC[C@H]2C(=O)O[C@H]([C@H](C)C[C@@H]2CC[C@@H](O)[C@H](OC)C2)CC(=O)[C@H](C)/C=C(\C)[C@@H](O)[C@@H](OC)C(=O)[C@H](C)C[C@H](C)/C=C/C=C/C=C/1C`, the IC50 was 50 nM (T98G).
With `C[C@@H](O)C(=O)CCCCC[C@@H]1NC(=O)[C@H]2CCCN2C(=O)[C@H](Cc2ccccc2)NC(=O)C(C)(C)NC1=O` the IC50 was 48 nM (Jurkat).
`CC1(C)S[C@@H]2[C@H](NC(=O)[C@H](N)c3ccccc3)C(=O)N2[C@H]1C(=O)O` gave an MIC of greater than 16 µg/mL (Enterobacter cloacae; clinical isolate RKI-No_34/16).
`COc1cc2c(Oc3ccc4[nH]c(C)cc4c3F)ncnc2cc1OCCCN1CCCC1` has an IC50 of 1710 nM (A 172).
The IC50 of `Nc1cccc2c1C(=O)N(C1CCC(=O)NC1=O)C2=O` (stereo not drawn) is reported as 25 nM (human whole blood; added: LPS stimulation).
For `COc1cc2ccc(=O)oc2c(O)c1OC`, the IC50 was 39.9 µg/mL (HeLa; cell growth).
For `Cc1nc2ccc3ccc(CNc4ccc5c(c4)CN([C@@H](CCC(=O)O)C(=O)O)C5=O)cc3c2c(=O)[nH]1`, the IC50 was 32 nM (KB; cell growth; added: folic acid 200 nM).
With `CC(C)(C)c1nc(-c2cccc(NS(=O)(=O)c3c(F)cccc3F)c2F)c(-c2ccnc(N)n2)s1` the IC50 was 52100 nM (A 172).
The IC50 of `O=c1ncccn1[C@@H]1O[C@H](CO)[C@@H](O)[C@H]1O` is reported as 152000 nM (A2780/CP cisplatin-resistant).
With `c1ccc2c(c1)CCNC2c1c[nH]c2ccccc12` (stereo not drawn) the IC50 was greater than 100000 nM (MRC-5 fibroblasts; cytotoxicity).
With `COc1cccc2c1C(=O)c1c(O)c3c(c(O)c1C2=O)C[C@@](O)(C(=O)CO)C[C@@H]3O[C@H]1C[C@H](N)[C@H](O)[C@H](C)O1` the IC50 was 540 nM (MCF7).
The IC50 of `CNC(=O)c1cc(Oc2ccc(NC(=O)Nc3ccc(Cl)c(C(F)(F)F)c3)cc2)ccn1` is reported as 16300 nM (T98G).
With `C/C=C1\NC(=O)[C@H]2CSSCC/C=C/[C@H](CC(=O)N[C@H](C(C)C)C(=O)N2)OC(=O)[C@H](C(C)C)NC1=O` the IC50 was 1 ± 1 nM (neonatal foreskin fibroblasts; cell growth).
For `O=c1c(-c2ccc(O)cc2)coc2cc(O)cc(O)c12`, the IC50 was 19000 nM (NIH3T3; mitogenic effect; added: insulin).
The IC50 of `Cn1ncc(Cl)c1-c1cc(C(=O)N[C@H](CN)Cc2ccc(F)c(F)c2)oc1Cl` is reported as 15700 nM (A 172).

For quick reference, copied from above:
`O=C(/C=C/c1cccc(S(=O)(=O)Nc2ccccc2)c1)NO` gave an IC50 of 2370 ± 1610 nM (neonatal foreskin fibroblasts; cell growth).
For `N=C(N)c1ccc(Nc2ccc(-c3cc4ccc(C(=N)N)cc4[nH]3)cc2)cc1`, the IC50 was 2270 nM (HeLa; cell proliferation).
